Published values collected from several papers.
Every numbered part comes from another study and shows a few of its results, in no order. Changes are numbered by the printed parent chain.

Set 1
Target: CCND1, cyclin fold, Cln2 fusion (human)
Method: yeast growth competition, sequencing
Sample: yeast
Setting: weak parent motif
Baseline: not given
Reading: higher = stronger binding
Starting sequence: RB1 docking peptide (human); PKPLKKLRFDIEG
Variant | normalised enrichment score
P1A | 0.184
K2C | 0.426
R8V | 0.454
I11W | -0.131
K6N | -0.11
K5T | -0.184
G13F | -0.187
F9A | 0.349
L4Y | 0.636
R8S | 0.143
K5G | -0.056
I11F | 0.247
G13R | 0.708
K6D | 0.767
P3W | 1.16
F9I | 0.49
I11E | 0.474
L7W | 0.408
K5Y | 0.694
L7A | 0.62
P1T | 0.0144
R8Y | 0.867
K5R | -0.14

Set 2
Molecule: PhoQ, residues 284 288 289 292 302 303 AMDMFI
Method: Sort-seq
Refers to: YFP reporter
Sample: E. coli
Setting: PhoQ-PhoP variant library
With: 10 µM Mg2+
Baseline: high Mg2+ state
Reading: higher = stronger signaling
target | fold induction
PhoP, residues 12 14 15 18 19 QYFSL (Escherichia coli, UniProt P23836) | 0.672
PhoP, residues 12 14 15 18 19 NYFRM (Escherichia coli, UniProt P23836) | 1.22
PhoP, residues 12 14 15 18 19 TQALL (Escherichia coli, UniProt P23836) | 0.415

Set 3
Target: CEP164, C-terminal peptide (human)
Method: DHFR complementation, deep sequencing
Sample: yeast
Setting: single substitutions, model-inferred values
Baseline: wild type
Reading: higher = weaker binding
Starting sequence: PDZK1, PDZ domain 2 (human); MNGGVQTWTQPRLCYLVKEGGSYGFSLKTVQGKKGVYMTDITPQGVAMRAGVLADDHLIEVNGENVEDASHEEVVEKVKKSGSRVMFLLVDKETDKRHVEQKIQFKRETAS; partner HNRVKVYRF
Variant | binding free energy change
D40R | 1.07 kcal/mol
M1C | -0.108 kcal/mol
G24N | 0.723 kcal/mol
W8C | -0.0803 kcal/mol
K106V | -0.143 kcal/mol
V74S | 0.774 kcal/mol
K96G | -0.0797 kcal/mol
M48W | -0.267 kcal/mol
R97G | -0.0911 kcal/mol
H71A | -0.364 kcal/mol
H98E | 0.0169 kcal/mol
F25E | 1.48 kcal/mol
E19M | 0.331 kcal/mol

Set 4
Target: Interferon regulatory factor 7, full length, phosphomimetic (IRF7, Homo sapiens, UniProt Q92985, residues 1-503, S471D/S472D/S475D/S476D/S477D/S483D/S484D/S487D)
Sequence of UniProt Q92985 (whole entry, unmodified, looked up): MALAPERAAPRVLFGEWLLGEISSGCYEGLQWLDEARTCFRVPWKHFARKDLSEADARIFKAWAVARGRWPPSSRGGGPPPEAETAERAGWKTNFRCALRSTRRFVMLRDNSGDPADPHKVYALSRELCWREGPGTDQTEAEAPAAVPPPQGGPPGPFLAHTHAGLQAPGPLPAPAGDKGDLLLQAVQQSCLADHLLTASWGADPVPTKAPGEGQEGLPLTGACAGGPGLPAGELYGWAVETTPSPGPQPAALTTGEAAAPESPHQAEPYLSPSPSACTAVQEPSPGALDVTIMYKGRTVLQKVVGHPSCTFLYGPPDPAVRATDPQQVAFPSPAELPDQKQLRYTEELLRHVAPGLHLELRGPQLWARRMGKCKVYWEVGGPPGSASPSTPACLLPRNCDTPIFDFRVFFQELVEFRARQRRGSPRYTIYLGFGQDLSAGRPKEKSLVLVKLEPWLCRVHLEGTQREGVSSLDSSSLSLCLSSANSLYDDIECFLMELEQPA
Method: protein-binding microarray
Form: double-stranded DNA, one strand shown
Sample: in vitro
Tested at: 2200 nM top
Setting: 60-bp whole probe
With: salmon DNA 0.4 mg/ml
Baseline: random background probes
Reading: higher = stronger binding
Shared flanks, not repeated: GCCTAGCAC … GTCTTGATTCGCTTGACGCTGCTG
Oligonucleotide | fitted relative affinity [z-score]
TTAGGTTTCGACTTTCGGTAAGTGCTA | 7.49
GACGGCCTCCTTCTCCTGACGTGCTAG | 0.423
GACGGTTTCCTTATACTGACGTGCTAG | 2.47
TCATTTCTCTCTGTGACACTGTGCTAG | 2.51
TTATGTTTCCTACTGCTTTAGTGCTAG | 2.61
TCATTTTTTTTTCCCTGACTGTGCTAG | 2.25
GACGGACTGGTTTTCGGGACGTGCTAG | 1.66
AGGGTCATCCATCTGAACCAGTGCTAG | -0.472
GACGGTCTCCTGATCCTGACGTGCTAG | 0.307
GACGATTTCGGGACTGGAGTCGTGCTA | 1.47
TTTTATTTATAAATTATCTTGTGCTAG | 0.11
TTAGGTCCCCTTATCCTTTAGTGCTAG | 1.04
TTAGGTATCGACACTGCGTTAGTGCTA | -0.0067
TTAGGTTTCCTTTTCCTTCAGTGCTAG | 5.86
TCAGAAATTCCTCTGAAACTGTGCTAG | -0.0993
TTAGAATTGAGACTGGATTAGTGCTAG | -0.926

Some of these lines once more (set 1):
Variant | normalised enrichment score
K6D | 0.767
P3W | 1.16
F9I | 0.49
I11E | 0.474
L7W | 0.408
K5Y | 0.694
